Measurements from different studies.
A part holds a random share of what one study measured. Substitutions count along the parent as printed.

Block 1 — technique: universal PBM; molecule type: double-stranded DNA, one strand shown; matrix: in vitro; tested at: not given; reading: higher = stronger binding
Target: Sal-like protein 4, full length isoform B (SALL4, Homo sapiens, UniProt Q9UJQ4-2, residues 1-616)
Notes: 8-mer, flanks averaged, mean of replicates
Sequence | E-score
AGAAATTC | 0.0436
CCGTGGCA | -0.215
CACAATAG | 0.0637
CACTCTAG | -0.0244
CTGGGCTC | -0.257
TACCCCAA | -0.123
AGGCCCCG | -0.386
GTGATTCA | -0.053
TGCGCAAA | 0.139

Block 2 — technique: RNA Bind-n-Seq; molecule type: RNA; matrix: in vitro; tested at: not given; reference: input RNA pool; reading: higher = stronger binding
Target: RING finger protein unkempt homolog, zinc fingers 1-6, GST-SBP tag (UNK, Homo sapiens, UniProt Q9C0B0, residues 30-357)
Notes: RNA with constant flanks, human and mouse sites, ends assumed
Constant ends, left off below: GGGAGUUCUACAGUCCGACGAUC … CAACAGAGGAUUGAGCAUCA
Construct (chain): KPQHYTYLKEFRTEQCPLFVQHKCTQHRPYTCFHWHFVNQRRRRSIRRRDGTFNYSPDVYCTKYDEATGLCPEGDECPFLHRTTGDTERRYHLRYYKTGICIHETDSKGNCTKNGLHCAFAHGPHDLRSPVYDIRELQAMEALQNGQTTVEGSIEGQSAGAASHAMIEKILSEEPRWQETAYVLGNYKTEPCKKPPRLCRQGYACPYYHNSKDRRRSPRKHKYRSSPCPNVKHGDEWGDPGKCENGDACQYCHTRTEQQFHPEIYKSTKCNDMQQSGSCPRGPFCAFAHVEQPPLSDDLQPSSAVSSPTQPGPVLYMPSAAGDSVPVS
Sequence | bound/input enrichment
UGGACAGAAAAGAUAAUGAAGCAGACCGAAGUGCUGUUGCAGCCAAAUCCAAAUGCCAGGAUAGAAGAAUUUGUUUAUGAGAAACUGGAUAGAAAAGCACCAAGUCGUAUAAACAACCCG | 0.522 ratio
CAAUAGAAGCUGUGGAUGAAUUCGCUUUUCUAGAAGGACUAUUUAACAAACUGCAAUCAACAGCAAUCAACAGCUAUGAACCAGCAACCUACCCUGCCUCUUGGGACCCUAGCAUUUAUA | 5.53 ratio
GGGCAUAUACAGCUUAUAAUUCCUGGAGAAUCUGCUUGUUUUGCGUGUGCUCCACCACUUGUAGUUGCUGCAAAUAUUGAUGAAAAGACUCUGAAACGAGAAGGUGUUUGUGCAGCCAGU | 0.363 ratio
GGAGUAUCAGUCCCGCGUCACUGCCGGGGGACCCUGCAGCUUCGGCUCAGGGUCUACGCCUGUCAUCGGGGGUAACACCUUCAAUCUCAAGGCCAGCCGUGGCAACGACCGUAAUCGCAU | 0.0649 ratio
AGAACUCCACCCCCAGAGGAAGUGGAUCUGCUUCUCCAGUUUUUGAGGAGCCAGCCAGGGGUCCAGCACAGCCCUACCCCGCCCCAGUAUCAUGCGAUGGUCCCCCACACCGGUUCCCUG | 0.198 ratio
GUGUUGCACCUAGAUAGAGUGAAAAGAUACAUCGUGGAACACGUAGAUCUGGGUGCAUACUAUUAUAGAAAAUUUUUCUACCAGAAGGAACACUGGAACUAUUUUGGGGCUGAUGAGAAU | 1.15 ratio
CCCCCUUUCAGGUGUGGUAUCAGUACGCUUUGAAGAAGAUGAAGACAGGAACUUGUGUUUAAUAGCAUAUCCAUUAAAAGGGGACCAUGGAACUGUGGAUAUAGUAGACAAUUCGGACUG | 0.741 ratio
UCAUUGUAAAUUACCUUUGUGUGUACAUUUUUACUGUAUUUGAGACAUUUUUUGUGUGUGACUAGUUAAUUUUGCAGGAUGUGCCAUAUCAUUGAACGGAACUAAAGUCUGUGACAGUGG | 0.519 ratio
GCGUUCGCGGGGCCGAGGCCAUGGCUUUCUGGGCGGGGGGUUCGCCCAGCGUCGUGGACUAUUUCCCUAGCGAGGACUUCUACCGCUGCGGCUACUGCAAGAACGAGUCGGGCAGCCGCU | 0.238 ratio
CAGGGUAUUGCCGCUGUUCUAAUAUUUUUUUAAGCAUAGACAGACUUAUAAUUAAUAUACAUUAGUUAGUGGCGUUGAAACAGUCCUCUGAGACAUUAACUAUAAGACUGUGUUCUGUUU | 0.823 ratio
GAAUUACAGAAAAAGCAGGACCGACAGAACCACCAAGUAAAACCUGAAAAAAGGUUACUAAGUGAUGGACAACAGCACCUUACGGAAAGCCUGAGAGAAAAGUGCUCUAGAAUAAAAGAG | 0.253 ratio

Block 3 — target: CCND2, cyclin fold, Cln2 fusion (human); technique: yeast growth competition, sequencing; matrix: yeast; notes: weak parent motif; reference: not given; reading: higher = stronger binding
Starting sequence: SAMHD1 docking peptide (human); ASKSRVQLFKDDP; partner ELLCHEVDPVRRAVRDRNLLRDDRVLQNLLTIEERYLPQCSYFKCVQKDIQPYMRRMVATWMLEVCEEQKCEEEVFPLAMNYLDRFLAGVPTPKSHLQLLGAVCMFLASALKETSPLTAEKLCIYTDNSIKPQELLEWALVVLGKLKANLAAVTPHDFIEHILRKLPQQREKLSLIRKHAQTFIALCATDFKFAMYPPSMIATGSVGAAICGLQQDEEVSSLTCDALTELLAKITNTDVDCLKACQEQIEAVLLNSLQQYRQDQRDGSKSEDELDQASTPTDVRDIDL
Variant | normalised enrichment score
ASKSRVYLFKDDP [Q7Y] | 0.0592
ASKSRVQLYKDDP [F9Y] | -0.131
ASKGRVQLFKDDP [S4G] | 0.0274
AMKSRVQLFKDDP [S2M] | 0.124
ASKSRVQMFKDDP [L8M] | 0.0468
ASKSEVQLFKDDP [R5E] | 0.171
ASKSRVQLFWDDP [K10W] | 0.265
ASKSRVQLWKDDP [F9W] | 0.358
ASKSRVQLFSDDP [K10S] | 0.385
ASKSRKQLFKDDP [V6K] | 0.294
ASKSRVQLFKFDP [D11F] | 0.27
ASKSRVQLFPDDP [K10P] | 0.0977
ASKSRGQLFKDDP [V6G] | 0.221
ASSSRVQLFKDDP [K3S] | -0.0949
ASKSRTQLFKDDP [V6T] | 0.183
ASKSKVQLFKDDP [R5K] | 0.387
ASKSRVQLFCDDP [K10C] | 0.429
ASKSRVQLFKDMP [D12M] | -0.0165
AWKSRVQLFKDDP [S2W] | 0.195
ASKSRVQLFKPDP [D11P] | 0.444
ASKSRMQLFKDDP [V6M] | 0.314
ASKSRPQLFKDDP [V6P] | -0.222

Block 4 — technique: protein-binding microarray; molecule type: double-stranded DNA, one strand shown; matrix: in vitro; tested at: 2540 nM top; notes: 60-bp whole probe; with: salmon DNA 0.4 mg/ml; reference: random background probes; reading: higher = stronger binding; constant ends, left off below: GCCTAGCAC … GTCTTGATTCGCTTGACGCTGCTG
Target: Interferon regulatory factor 3, full length, phosphomimetic (IRF3, Homo sapiens, UniProt Q14653, residues 1-427, S386D/S396D/S398D/S402D/T404D/S405D)
Chain of UniProt Q14653 (whole entry, unmodified, looked up): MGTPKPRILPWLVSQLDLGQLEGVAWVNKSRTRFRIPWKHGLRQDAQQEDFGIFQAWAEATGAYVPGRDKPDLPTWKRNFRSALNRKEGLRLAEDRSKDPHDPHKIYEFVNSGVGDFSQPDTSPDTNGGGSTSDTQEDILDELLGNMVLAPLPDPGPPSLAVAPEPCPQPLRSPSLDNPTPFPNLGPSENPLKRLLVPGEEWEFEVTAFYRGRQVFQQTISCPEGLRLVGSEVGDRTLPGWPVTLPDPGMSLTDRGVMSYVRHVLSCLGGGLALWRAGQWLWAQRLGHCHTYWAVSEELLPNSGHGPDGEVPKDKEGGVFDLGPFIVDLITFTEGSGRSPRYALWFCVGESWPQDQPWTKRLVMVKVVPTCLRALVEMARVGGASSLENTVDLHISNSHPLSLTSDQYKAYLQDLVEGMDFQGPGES
Sequence | fitted relative affinity [z-score]
TTAGGTTTCCTTTTCCTTTCGTGCTAG | 11.8
GTCGATATCAGTCTCGAGACGTGCTAG | 1.91
TCACTTTTCGCTTTCTTACTGTGCTAG | 3.24
GACGGTCTCGGTATCGGGTCGTGCTAG | 2.15
TTAGGTTTCGACTATCGGTAAGTGCTA | 2.46
TCAAAAATCTCAATGGGACTGTGCTAG | -0.397
TTAGATATCAGAATCGATTAGTGCTAG | 1.69
TTAGATCTCAGTCTCGAGTAGTGCTAG | 0.529
GTTTTTTTTTAATTGAAATCGTGCTAG | 1.83
GACGGTTTCAGTCTCGAGACGTGCTAG | 5.02
TTAGGTATCCTTATCCTCTAGTGCTAG | 5.19
TTAGGTATCGAAACTGGGTTAGTGCTA | 1.67
TATGTTCACTATTTAAGGCCGTGCTAG | 0.921
GACGGACTGCTTTGCCTGACGTGCTAG | -0.581
TTAGGTATCGGGTCTCGGTTAGTGCTA | 2.44
GACGGTATCGGTTTCGGAACGTGCTAG | 8.23
TTAGTTTTCCTACTGCTTTAGTGCTAG | 3.78
TGTGCATGTGTGTTTTCTGCGTGCTAG | -0.2
TTAGATATCAGAGTGGATTAGTGCTAG | 0.142
TACTAGAGTAAAACCCTGGCGTGCTAG | -0.484
GACGATTTCACTATCGAGACGTGCTAG | 2.6
CCGGGGGGCACAGGGTGAGGGTGCTAG | 0.231
TTTTCACTTTCTTTAACTCAGTGCTAG | 4.38
TTAGCTTTCGGGTTTCGATTAGTGCTA | 3.3
GACGGACTGGACTTTCGGCACGTGCTA | -0.238

Block 5 — technique: DHFR PCA, deep sequencing; matrix: yeast; with: (+)-ABA 0.0091 µM; reference: wild-type fitted maximum; reading: higher = stronger binding
Target: ABI1, truncated, D143A, DHFR fusion (Arabidopsis thaliana)
Notes: methotrexate growth selection, single substitutions
Starting sequence: PYL1, truncated, DHFR fusion (Arabidopsis thaliana); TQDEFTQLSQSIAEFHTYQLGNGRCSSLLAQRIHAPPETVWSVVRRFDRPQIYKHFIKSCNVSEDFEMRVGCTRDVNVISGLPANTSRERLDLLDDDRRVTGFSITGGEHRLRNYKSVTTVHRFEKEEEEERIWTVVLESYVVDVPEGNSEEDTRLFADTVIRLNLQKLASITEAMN
Variant | relative binding score [%]
E128I | -8.53
N177F | 41.5
V78K | 3.4
S26K | -2.27
T6C | 23.5
S27A | 0.187
A158P | -3.22
R99L | 57.2
E151S | 27.6
V44A | -2.62
N149Q | 47.8
F157A | 1.49
E130W | 0.0605
M68C | 7.32
E38N | -0.237
E64P | 53.5
I162K | 4.7
